Published values from different studies.
Compare with care: the assays were run in different laboratories. ± gives the spread as reported.
CNR1: Cannabinoid receptor 1 (CNR1, Homo sapiens, UniProt P21554)
SOST: Sclerostin (SOST, Homo sapiens, UniProt Q9BQB4)
Kir3.1/Kir3.4: Kir3.1/Kir3.4 (Homo sapiens, UniProt P48544+P48549)
IDE: Insulin-degrading enzyme (IDE, Homo sapiens, UniProt P14735)
MAPT phosphorylated: Microtubule-associated protein tau, phosphorylated (MAPT, Homo sapiens, UniProt P10636)

SMILES	target	assay	test system	setting	EC50 [nM]
CCOC(=O)[C@](CC)(CCCSCCOCCOCCN)NC(=O)c1ccc(C2CC2)c(Cc2ccc(F)cc2)n1	CNR1	cAMP, agonist	–	–	57
CC(=O)N[C@@H]1[C@@H](O[C@@H]2O[C@H](C(=O)O)[C@@H](O[C@@H]3O[C@H](COS(=O)(=O)O)[C@@H](OS(=O)(=O)O)[C@H](O[C@@H]4O[C@H](C(=O)O)[C@@H](OS(=O)(=O)O)[C@H](OS(=O)(=O)O)[C@H]4OS(=O)(=O)O)[C@H]3NC(C)=O)[C@H](OS(=O)(=O)O)[C@H]2OS(=O)(=O)O)[C@H](OS(=O)(=O)O)[C@@H](COS(=O)(=O)O)O[C@H]1SCCOCCOCCSSCCOCCOCCS[C@@H]1O[C@H](COS(=O)(=O)O)[C@@H](OS(=O)(=O)O)[C@H](O[C@@H]2O[C@H](C(=O)O)[C@@H](O[C@@H]3O[C@H](COS(=O)(=O)O)[C@@H](OS(=O)(=O)O)[C@H](O[C@@H]4O[C@H](C(=O)O)[C@@H](OS(=O)(=O)O)[C@H](OS(=O)(=O)O)[C@H]4OS(=O)(=O)O)[C@H]3NC(C)=O)[C@H](OS(=O)(=O)O)[C@H]2OS(=O)(=O)O)[C@H]1NC(C)=O	SOST	fluorescence polarization competition	–	added: TAMRA-labelled probe	45 ± 7
CCOC(=O)C(CC)(CCCSCCOCCN)NC(=O)c1ccc(C2CC2)c(Cc2ccc(F)cc2)n1 (stereo not shown)	CNR1	cAMP, agonist	–	–	0.6
O=C(Cc1ccc(OCc2ccccc2)cc1)NC1(C(=O)O)CCN(C(=O)c2ccc(-c3cccc(Cl)c3)cc2)CC1	Lysophosphatidic acid receptor 3 (LPAR3, Homo sapiens, UniProt Q9UBY5)	cAMP, agonist, luciferase	–	–	> 10000
CCc1cc(O)cc2c(/C=N/NC(=N)NCCc3ccc(Cl)cc3)c[nH]c12	Relaxin-3 receptor 2 (RXFP4, Homo sapiens, UniProt Q8TDU9, T295V)	agonist	–	–	8.13
C=C[C@H]1CN([C@@H](C)c2cn(CCCNC(=O)CCc3ccc4n3[B-](F)(F)[N+]3=C(c5ccc[nH]5)C=CC3=C4)nn2)C(=O)[C@@H]2CCC[C@H]1N2S(=O)(=O)c1cc(Cl)cc(Cl)c1	Peptidyl-prolyl cis-trans isomerase FKBP1A (FKBP1A, Homo sapiens, UniProt P62942)	tracer binding, NanoBRET tracer titration	HEK293T transiently expressing FKBP1A	2 h, 37 °C	28 ± 1
CC(=O)N[C@@H]1[C@@H](O[C@@H]2O[C@H](C(=O)O)[C@@H](O[C@@H]3O[C@H](COS(=O)(=O)O)[C@@H](OS(=O)(=O)O)[C@H](O[C@@H]4O[C@H](C(=O)O)[C@@H](O[C@@H]5O[C@H](COS(=O)(=O)O)[C@@H](OS(=O)(=O)O)[C@H](O[C@@H]6O[C@H](C(=O)O)[C@@H](OS(=O)(=O)O)[C@H](OS(=O)(=O)O)[C@H]6OS(=O)(=O)O)[C@H]5NC(C)=O)[C@H](OS(=O)(=O)O)[C@H]4OS(=O)(=O)O)[C@H]3NC(C)=O)[C@H](OS(=O)(=O)O)[C@H]2OS(=O)(=O)O)[C@H](OS(=O)(=O)O)[C@@H](COS(=O)(=O)O)O[C@H]1N=[N+]=[N-]	SOST	fluorescence polarization competition	–	added: TAMRA-labelled probe	47 ± 7
O=C(COc1ccc(C(F)(F)F)cc1C(F)(F)F)Nc1cc(C2CCC2)nn1CC(F)(F)F	Kir3.1/Kir3.4	activator, thallium flux	HEK293	–	10000
O=C(O)c1ccccc1OCc1ccccc1Br	Cell division control protein 42 homolog (CDC42, Homo sapiens, UniProt P60953)	GTP binding, flow cytometry bead	–	EDTA buffer, added: 100 nM BODIPY-GTP	102
Cc1sc2c(c1C)C(c1ccc(Cl)cc1)=N[C@@H](CC(=O)NCC(=O)N1CCC3(CCC(C(=O)N4CCN(C(=O)c5cc(Cc6n[nH]c(=O)c7ccccc67)ccc5F)CC4)CC3)CC1)c1nnc(C)n1-2	Poly [ADP-ribose] polymerase 1 (PARP1, Homo sapiens, UniProt P09874)	target engagement in cells, BRET	–	–	42
COc1ccc(C(=O)c2c(C(=O)NCCCN(C)C)oc3ccc(Cl)cc3c2=O)cc1OC	Growth hormone secretagogue receptor type 1 (GHSR, Homo sapiens, UniProt Q92847)	calcium mobilization	HEK293T transfected	–	91.2
O=C(NC[C@@H](Cc1ccc(F)cc1)N1CCC(O)(C(F)(F)F)CC1)C1(c2ccc(Cl)cc2)CCCC1	Transient receptor potential cation channel subfamily A member 1 (TRPA1, Homo sapiens, UniProt O75762, F938A)	–	–	–	20
CCOC(=O)C(CC)(CCCSCCOCCOCCOCCN)NC(=O)c1ccc(C2CC2)c(Cc2ccc(F)cc2)n1 (stereo not shown)	CNR1	cAMP, agonist	–	–	146
CCN(CC)C(CO)c1cccc2c(C)c(C)oc12 (stereo not shown)	Lysophosphatidic acid receptor 1 (LPAR1, Homo sapiens, UniProt Q92633)	G protein activation, agonist, BRET	–	–	2.28
CCOC(=O)[C@](CC)(CCCSCCOCCOCCNC(=O)CCCCCN1C(=CC=CC=CC2=[N+](C)c3ccc4ccccc4c3C2(C)C)C(C)(C)c2c1ccc1ccccc21)NC(=O)c1ccc(C2CC2)c(Cc2ccc(F)cc2)n1	CNR1	cAMP, agonist	–	–	726
Cc1cc(NC(=O)COc2ccc(Cl)cc2Cl)n(CC(F)(F)F)n1	Kir3.1/Kir3.4	activator, thallium flux	HEK293	–	373
CC1=NC(C)C(C)S1 (stereo not shown)	uncharacterized protein (Vulpes vulpes, UniProt A0A3Q7SVK8)	cAMP, agonist	HEK293 transfected with uncharacterized protein	–	105000 ± 20000

SMILES	target	assay	test system	setting	EC50 [nM]
Cc1cccc(-c2ccc([C@@H]3[C@@H](CO)N4CCCCN(S(=O)(=O)c5ccccc5C(F)(F)F)C[C@@H]34)cc2)c1C	IDE	inhibitor	–	–	5
O=C(COc1ccc(Cl)cc1Cl)Nc1cc(C2CC2)nn1C1CCOCC1	Kir3.1/Kir3.4	activator, thallium flux	HEK293	–	560
CC(=O)N[C@H]1[C@H](O[C@H]2[C@H](OS(=O)(=O)O)[C@@H](OS(=O)(=O)O)[C@H](O[C@H]3[C@H](OS(=O)(=O)O)[C@@H](COS(=O)(=O)O)OC[C@@H]3NC(C)=O)O[C@@H]2C(=O)O)O[C@H](COS(=O)(=O)O)[C@@H](OS(=O)(=O)O)[C@@H]1O[C@@H]1O[C@H](C(=O)O)[C@@H](OS(=O)(=O)O)[C@H](OS(=O)(=O)O)[C@H]1OS(=O)(=O)O	SOST	fluorescence polarization competition	–	corrected value, added: TAMRA-labelled probe	71300 ± 35500
CNc1ncnc2c1ncn2C1OC(CO)C(O)C1O (stereo not shown)	Adenosine receptor A3 (ADORA3, Homo sapiens, UniProt P0DMS8, V169E)	G protein activation, agonist	–	–	2500
CS[C@@H]1O[C@H](COS(=O)(=O)O)[C@@H](OS(=O)(=O)O)[C@H](O[C@@H]2O[C@H](C(=O)O)[C@@H](O[C@@H]3O[C@H](COS(=O)(=O)O)[C@@H](OS(=O)(=O)O)[C@H](O[C@@H]4O[C@H](C(=O)O)[C@@H](OS(=O)(=O)O)[C@H](OS(=O)(=O)O)[C@H]4OS(=O)(=O)O)[C@H]3NC(C)=O)[C@H](OS(=O)(=O)O)[C@H]2OS(=O)(=O)O)[C@H]1NC(C)=O	SOST	fluorescence polarization competition	–	corrected value, added: TAMRA-labelled probe	95600 ± 22500
Nc1ncnc2c1ncn2[C@@H]1O[C@H](COP(=O)(O)OP(=O)(O)OC[C@H]2OC(O)[C@H](O)[C@@H]2O)[C@@H](O)[C@H]1OP(=O)(O)O (stereo partly shown)	TRPM2 (Nematostella vectensis, UniProt A7T1N0, T702C)	agonist	–	–	84 ± 5
CC(=O)N[C@@H]1[C@@H](O[C@@H]2O[C@H](C(=O)O)[C@@H](OS(=O)(=O)O)[C@H](OS(=O)(=O)O)[C@H]2OS(=O)(=O)O)[C@H](OS(=O)(=O)O)[C@@H](COS(=O)(=O)O)O[C@H]1N=[N+]=[N-]	SOST	fluorescence polarization competition	–	corrected value, added: TAMRA-labelled probe	673000 ± 27900
CCc1cc(NC(=O)COc2cc(Cl)ccc2Cl)n(CC(F)(F)F)n1	Kir3.1/Kir3.4	activator, thallium flux	HEK293	–	1060
CC(=O)N[C@@H]1[C@@H](O[C@@H]2O[C@H](C(=O)O)[C@@H](O[C@@H]3O[C@H](COS(=O)(=O)O)[C@@H](O)[C@H](O[C@@H]4O[C@H](C(=O)O)[C@@H](O)[C@H](O)[C@H]4O)[C@H]3NC(C)=O)[C@H](O)[C@H]2O)[C@H](O)[C@@H](COS(=O)(=O)O)O[C@H]1N=[N+]=[N-]	SOST	fluorescence polarization competition	–	corrected value, added: TAMRA-labelled probe	250000 ± 29100
CCOC(=O)CN1C(=O)/C(=C\c2ccc(OC)cc2)N=C1c1ccccc1	MAPT phosphorylated	tau aggregation cytotoxicity, 10-point dose response	–	–	> 28700
CC(=O)N[C@@H]1[C@@H](O[C@@H]2O[C@H](C(=O)O)[C@@H](O[C@@H]3O[C@H](COS(=O)(=O)O)[C@@H](OS(=O)(=O)O)[C@H](O[C@@H]4O[C@H](C(=O)O)[C@@H](OS(=O)(=O)O)[C@H](OS(=O)(=O)O)[C@H]4OS(=O)(=O)O)[C@H]3NC(C)=O)[C@H](OS(=O)(=O)O)[C@H]2OS(=O)(=O)O)[C@H](OS(=O)(=O)O)[C@@H](COS(=O)(=O)O)O[C@H]1n1ccnn1	SOST	fluorescence polarization competition	–	corrected value, added: TAMRA-labelled probe	52400 ± 18200
CC(C)Oc1cc(Cl)ccc1CNc1cc(-c2ccccc2)nc2ncnn12	G-protein coupled receptor 3 (GPR3, Homo sapiens, UniProt P46089, Q211A)	cAMP level, cAMP GloSensor	–	–	18100
Fc1ccc(CN2CCC[C@@H](c3nc(-c4ccc(F)c5cn[nH]c45)no3)C2)cn1	CNR1	–	–	mean	110
Nc1ccccc1Nc1nc2ccccc2[nH]1	MAPT phosphorylated	tau aggregation cytotoxicity, 10-point dose response	–	–	9400
Cn1c(=O)n(C2CCC(=O)NC2=O)c2ccc(C3CCN(CC(=O)Nc4cccc(CS(=O)(=O)N5CC[C@H](Nc6cccc(-c7sc(C(=O)O)c(OCC(=O)O)c7Cl)c6)CC5(C)C)c4)CC3)cc21 (stereo partly shown)	Tyrosine-protein phosphatase non-receptor type 11 (PTPN11, Homo sapiens, UniProt Q06124)	phosphatase activity	–	added: DiFMUP substrate	> 10000
Cc1cccc(-c2ccc(C3C(CO)N4CCCCN(S(=O)(=O)c5ccccc5C)CC34)cc2)c1 (stereo not shown)	IDE	inhibitor	–	–	190
CC(=O)N[C@@H]1[C@@H](O[C@@H]2O[C@H](C(=O)O)[C@@H](O[C@@H]3O[C@H](CO)[C@@H](OS(=O)(=O)O)[C@H](O[C@@H]4O[C@H](C(=O)O)[C@@H](OS(=O)(=O)O)[C@H](OS(=O)(=O)O)[C@H]4OS(=O)(=O)O)[C@H]3NC(C)=O)[C@H](OS(=O)(=O)O)[C@H]2OS(=O)(=O)O)[C@H](OS(=O)(=O)O)[C@@H](CO)O[C@H]1N=[N+]=[N-]	SOST	fluorescence polarization competition	–	added: TAMRA-labelled probe	6700 ± 1300
